Results pooled from the literature.
“And” joins repeats or separate records; there may be more than shown.

| SMILES | test | test system | conditions | how to read | endpoint | value |
| --- | --- | --- | --- | --- | --- | --- |
| C=C(C)[C@@H]1CC[C@]2(NCCN3CCS(=O)(=O)CC3)CC[C@]3(C)[C@H](CC[C@@H]4[C@@]5(C)CC=C(C6=CC[C@@](CF)(C(=O)O)CC6)C(C)(C)[C@@H]5CC[C@]43C)[C@@H]12 |  | healthy human volunteers, plasma | oral, 200 mg, tablet, moderate-fat state, geometric mean |  | AUC(0-t) | 37900 ng·h/mL |
| CC(C)NC[C@@H](C(=O)N1CCN(c2ncnc3c2[C@H](C)C[C@H]3O)CC1)c1ccc(Cl)cc1 |  | human, hepatic impairment Healthy (Child-Pugh), plasma | oral, 100 mg single, geometric mean |  | AUC(0-t) | 277 ng·h/mL |
| CNc1nc(Nc2ccc(-n3cnc(C)n3)c(OC)c2)nc2c1CC[C@H]2c1ccc(F)cc1 |  | human | oral, 100 mg once daily, day 1, multiple ascending dose |  | AUC(0-t) | 2910 ng·h/mL |
| CC(C)c1nc(N(C)S(C)(=O)=O)nc(-c2ccc(F)cc2)c1/C=C/[C@@H](O)C[C@@H](O)CC(=O)O |  | humans, plasma | oral, dose not given, together with: fenebrutinib 200 mg twice daily | relative to: with over without fenebrutinib | AUC(0-t) ratio | ~2.66 fold and 2.66 fold |
| Cc1ccc(NC(=O)c2ccc(CN3CCN(C)CC3)cc2)cc1Nc1nccc(-c2cncc(-c3oncc3C)c2)n1 |  | older healthy human adults, plasma | oral, 100 mg single dose, fed, mean |  | AUC(0-t) | 114000 ng·h/mL |
| COc1cccc(-c2ccc(NC(=O)C3=C(C(=O)O)CCC3)c(F)c2)c1 |  | human, male, plasma | oral, 50 mg once daily, day 13, geometric mean |  | AUC(0-t) | 307000 ng·h/mL |
| C=CC(=O)Nc1cc(Nc2ncc(C(=O)OC(C)C)c(-c3cn(C)c4ccccc34)n2)c(OC)cc1N(C)CCN(C)C |  | human, fasted | oral, 80 mg single dose, arithmetic mean |  | AUC(0-t) | 301 ng·h/mL |
| CC(C)[C@@H](CS(=O)(=O)C(C)C)N1C(=O)[C@@](C)(CC(=O)O)C[C@H](c2cccc(Cl)c2)[C@H]1c1ccc(Cl)cc1 |  | human, plasma | oral, 60 mg, new tablet fasted |  | AUC(0-t) geometric LS mean | 2860 ng·h/mL |
| [2H]C([2H])([2H])Oc1cc2c(cc1OC([2H])([2H])[2H])C1CC(=O)C(CC(C)C)CN1CC2 (centres unmarked) | geometric mean ratio, crossover, measured: alpha-dihydrotetrabenazine | human, fasted, plasma | oral, 15 mg | relative to: compound over tetrabenazine 25 mg fasted | AUC(0-t) ratio | 116% |
| CCOc1c([C@H](C)n2nc(C)c3c(N)ncnc32)cc(Cl)c(F)c1[C@@H]1CNC(=O)C1 |  | healthy fasted humans, plasma | oral, 20 mg |  | AUC(0-t) geometric mean | 14.2 µM·h |
| Nc1ccn([C@@H]2O[C@H](CO)[C@@H](O)C2(F)F)c(=O)n1 | LC-MS/MS | human | intravenous, day 15, together with: lonafarnib | relative to: compound alone on day 1 | AUC(0-t) ratio | 109% |
